Experimental data collected from several papers.
Compare with care: the assays were run in different laboratories.
Sequence of UniProt P37136 (whole entry, looked up): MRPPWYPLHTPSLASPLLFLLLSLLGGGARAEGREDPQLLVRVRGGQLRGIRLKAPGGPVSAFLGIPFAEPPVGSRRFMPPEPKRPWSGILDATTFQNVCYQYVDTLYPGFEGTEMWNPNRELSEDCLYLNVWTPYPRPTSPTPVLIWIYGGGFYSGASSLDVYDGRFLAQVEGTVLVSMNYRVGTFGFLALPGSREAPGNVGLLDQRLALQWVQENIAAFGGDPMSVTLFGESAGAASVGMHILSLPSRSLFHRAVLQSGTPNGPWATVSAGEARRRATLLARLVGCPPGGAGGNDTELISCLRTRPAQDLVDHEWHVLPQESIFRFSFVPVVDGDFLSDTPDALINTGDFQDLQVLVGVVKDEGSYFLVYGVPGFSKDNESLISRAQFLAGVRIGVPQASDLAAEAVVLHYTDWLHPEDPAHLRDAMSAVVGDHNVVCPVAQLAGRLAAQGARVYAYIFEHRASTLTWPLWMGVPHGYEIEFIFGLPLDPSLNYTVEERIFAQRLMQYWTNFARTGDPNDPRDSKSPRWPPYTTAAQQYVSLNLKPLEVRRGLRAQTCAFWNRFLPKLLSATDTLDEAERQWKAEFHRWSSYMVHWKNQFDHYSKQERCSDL

Molecule = semaglutide; test = measured: resolved with sequelae; system = human, safety analysis set; conditions = concentration not given, 32 weeks, run-in; quantity = participants with adverse events; result = 0%
Molecule = deucravacitinib; test = multiple ascending dose; system = healthy human; conditions = oral, 12 mg twice daily; quantity = subjects with oropharyngeal pain; result = 11.1%
Molecule = chicoric acid; tested on = IPEC-J2 monolayer; conditions = together with: vinblastine 30 µM; how to read = baseline: without inhibitor; quantity = Papp basolateral to apical; result = decreased
Molecule = maraviroc; system = white CYP3A5 poor metabolizers, plasma; conditions = 300 mg twice daily; quantity = AUC(0-12h); result = 2950 ng·h/mL
Molecule = phoxim-oxon; tested on = Ache (Rattus norvegicus, UniProt P37136); test = inhibitor; system = rat, postnatal day 12, rat skeletal muscle homogenate; conditions = 15 min, 37 °C; quantity = IC50; result = 12 nM

A few entries again:
Molecule = deucravacitinib; test = multiple ascending dose; system = healthy human; conditions = oral, 12 mg twice daily; quantity = subjects with oropharyngeal pain; result = 11.1%
